Assay results collected from several papers.
Lines come from different studies, so protocols differ. ± marks the error that the study gave. Values after ≈ are worked out from the molar mass of the structure shown.

SMILES	test	test system	setting	how to read	measurement	value
CNC(C)Cc1ccc2c(c1)OCO2 (racemic)	visual analog scale, item: Confident	human	oral, 1.5 mg/kg, mean over session, unit not given	baseline: pre-dose baseline	mood rating	10.1
CC[C@H](C)[C@H](NC(=O)[C@H](CO)NC(=O)[C@H](C)NC(=O)[C@@H](NC(=O)CNC(=O)[C@H](CO)NC(=O)[C@@H](NC(=O)[C@@H](NC(=O)[C@H](Cc1c[nH]cn1)NC(=O)[C@@H]1CCCN1C(=O)[C@@H](NC(=O)[C@H](CC(C)C)NC(=O)[C@H](CO)NC(=O)[C@H](CC(C)C)NC(=O)[C@@H](N)Cc1ccccc1)[C@@H](C)CC)[C@@H](C)CC)C(C)C)C(C)C)C(=O)N[C@@H](C)C(=O)N[C@@H](CCCCN)C(=O)N[C@@H](Cc1c[nH]cn1)C(=O)N[C@@H](Cc1ccccc1)C(N)=O	UPLC-MS/MS	rat plasma	0.05 µg/mL, 10 days, -20 °C, long-term stability	–	concentration found	48 ng/mL
COc1cc(/C=C/C(=O)CC(=O)/C=C/c2ccc(O)c(OC)c2)ccc1O	–	aqueous 0.8% PVA	12 h, pH 6	–	solubility	313.6 ± 1.05 µg/mL (≈ 851 µM)
O=C(NCCS)c1cccc(C(=O)NCCS)c1	–	rat, Sprague-Dawley, male, plasma	intravenous, 1 mg/kg	–	volume of distribution at steady state	5.5 L/kg
C[C@H](NC(=O)[C@@H]1CCCN1C(=O)[C@H](CC(N)=O)NC(=O)[C@H](Cc1c[nH]c2ccccc12)NC(=O)[C@@H](N)CCCNC(=N)N)C(=O)N[C@H](C(=O)NCC(=O)N[C@@H](CCCCN)C(=O)N[C@@H](Cc1c[nH]c2ccccc12)C(=O)N[C@@H](CCC(=O)O)C(=O)O)[C@@H](C)O	circular dichroism	phosphate buffer	pH 6.5	–	Tm	61.6 ± 0.1 °C
CCCC(=O)OCSc1ccccc1C(=O)NCCC(N)=O	–	Sprague-Dawley rat, male, plasma	oral, 1000 mg/kg	–	Tmax	1.1 ± 1.7 h
CC(=O)N[C@H](CCCCN)C(=O)N[C@H](CC(C)C)C(=O)N[C@@H](CCN)C(=O)N[C@H](CO)C(=O)N[C@H](CC(C)C)C(=O)N[C@H](CC(C)C)C(=O)N[C@@H](CCN)C(=O)N[C@@H](C(=O)N[C@H](CC(C)C)C(=O)N[C@H](CO)C(=O)N[C@@H](CCN)C(=O)N[C@H](C)C(=O)N[C@H](C)C(=O)N[C@H](C)C(=O)N[C@H](C)C(=O)N[C@H](C)C(=O)N[C@H](CC(C)C)C(=O)N[C@@H](CCN)C(=O)N[C@@H](C(=O)N[C@H](CC(C)C)C(=O)N[C@H](CC(C)C)C(=O)N[C@@H](CCN)C(=O)N[C@H](C)C(=O)N[C@H](CC(C)C)C(=O)N[C@H](CO)C(=O)N[C@@H](CCN)C(N)=O)[C@H](C)O)[C@H](C)O	–	human erythrocytes	18 h, pH 7.4, 37 °C, 50% hemolysis	–	HC50	20 µg/mL
[123I]c1cncc(OC[C@@H]2CCN2)c1	SPECT	human, brain cortex	intravenous bolus plus infusion, 7.6 mCi	baseline: plasma	tissue/plasma ratio	29.1
CCNc1nc(Cl)nc(NCC)n1	LC-MS/MS	herbicide solution	2 h, 40 °C, together with: 254 nm UV exposure	–	remaining amount	64.7 ± 11.2%
CN[C@@](C)(C[18F])C(=O)O	–	SCID mouse MDA-MB-468 xenograft, heart	120 min, post injection	–	tissue uptake	3.9 ± 0.5 %ID/g
c1cc2ccc3cccc4ccc(c1)c2c34	HPLC-fluorescence	Wistar rat, male, brain	oral, 4 mg/kg, 24 h	–	tissue concentration	11.6 ± 0.9 ng/g
CCCCCOc1ccc(-c2cc(-c3ccc(C(=O)N[C@H]4C[C@@H](O)[C@@H](O)NC(=O)[C@@H]5[C@@H](O)[C@@H](C)CN5C(=O)[C@H]([C@H](O)CC(N)=O)NC(=O)[C@H]([C@H](O)[C@@H](O)c5ccc(O)c(OS(=O)(=O)O)c5)NC(=O)[C@@H]5C[C@@H](O)CN5C(=O)[C@H]([C@@H](C)O)NC4=O)cc3)no2)cc1	–	human children aged 6-11 years, plasma	intravenous, 4.5 mg/kg once daily, day 7, mean	–	clearance at steady state	0.273 mL/min/kg
C[C@H]1CNCCc2ccc(Cl)cc21	–	male Sprague-Dawley rat, plasma	subcutaneous, 3 mg/kg, single dose	–	Cmax	106 ng/mL
COc1ccc(C[C@@H]2NC(=O)[C@H]([C@@H](C)O)NC(=O)[C@@H]3[C@@H]4CCN3C(=O)[C@@H]3Cc5cn(c6ccc(F)cc56)CCCCCCN(Cc5ccc(cc5)CCNC(=O)[C@]5(C)CCCN5C2=O)C(=O)CCC(=O)N[C@@H](C)C(=O)N[C@H](CNC(=O)CCCCC[N+](C)(C)C)C(=O)N[C@@H](Cc2cccc(c2)CNC(=O)CO4)C(=O)N3)cc1	–	fasted healthy humans, plasma	oral, 35 mg single dose, with 1800 mg Labrasol, geometric mean	–	Vz/F	2660 L

Excerpt of the above:
SMILES	test	test system	setting	how to read	measurement	value
c1cc2ccc3cccc4ccc(c1)c2c34	HPLC-fluorescence	Wistar rat, male, brain	oral, 4 mg/kg, 24 h	–	tissue concentration	11.6 ± 0.9 ng/g
COc1cc(/C=C/C(=O)CC(=O)/C=C/c2ccc(O)c(OC)c2)ccc1O	–	aqueous 0.8% PVA	12 h, pH 6	–	solubility	313.6 ± 1.05 µg/mL (≈ 851 µM)
